# Assay results collected from several papers.
# Values joined by “and” are separate records of one study, mostly repeats; a detail may differ. ± marks the error that the study gave.
# ABO G235S/G268A/L266M/R176G: Histo-blood group ABO system transferase (ABO, Homo sapiens, UniProt P16442, G235S/G268A/L266M/R176G)
# ESR1: Estrogen receptor (ESR1, Homo sapiens, UniProt P03372)
Compound,target,test,test system,setting,how to read,measurement,result
CSCC[C@H](NC(=O)[C@H](Cc1c[nH]c2ccccc12)NC(=O)[C@@H](NC(=O)[C@@H](NC(=O)[C@@H](NC(=O)[C@H](C)NC(=O)[C@@H](NC(=O)[C@H](C)NC(=O)[C@H](CCCCN)NC(=O)[C@H](CCCCN)NC(=O)[C@@H](NC(=O)[C@H](CC(N)=O)NC(=O)[C@H](CCC(=O)O)NC(=O)[C@@H](N)CCSC)C(C)C)[C@@H](C)O)[C@@H](C)O)[C@@H](C)O)[C@@H](C)O)C(=O)N[C@H](C(=O)N1CCC[C@H]1C(=O)N[C@H](C(=O)N[C@@H](C)C(=O)N[C@@H](C)C(=O)O)[C@@H](C)O)C(C)C,"Recombining binding protein suppressor of hairless (Rbpj, Mus musculus, UniProt P31266)",isothermal titration calorimetry,,"pH 6.5, 25 °C",,–TΔS°,5.9 ± 0.3 kcal/mol
COC(=O)C12CC(C(=O)N3CCn4c(nc(C(=O)Nc5cccc(-c6ccc7c(c6)OCCO7)c5C)c4Cl)C3)(C1)C2,"Programmed cell death 1 ligand 1, with PD-1 (CD274, Homo sapiens, UniProt Q9NZQ7)","PD-1/PD-L1 binding, inhibitor, TR-FRET",,"5 µM, room temperature",reference: no inhibitor,remaining binding,6 ± 9%
Nc1c2ncn3c2nc[n+]1[C@@H]1O[C@H](COP(=O)(O)OP(=O)([O-])OCCOC3)[C@@H](O)[C@H]1O,"cADPR receptor, sea urchin",Ca2+ release,sea urchin egg homogenate,concentration not given,,activity,inactive
CC(=O)N(Cc1ccccc1)[C@@H](C)C(=O)N(C)[C@@H](C)C(=O)N(Cc1c[nH]c2cc(Cl)ccc12)[C@@H](C)C(=O)N(C)[C@@H](C)C(=O)N(CCC(C)(C)C)[C@@H](C)C(=O)N1CCNCC1,"E3 ubiquitin-protein ligase Mdm2, N-terminal domain 17-125 (MDM2, Homo sapiens, UniProt Q00987)","binding, SPR",PBS with Tween,"10 °C, immobilised peptoid",,koff,0.065 s⁻¹
NC(=O)C1CCNC(=O)C(CCCNC(=O)c2cnccn2)NC(=O)C(Cc2ccco2)NC(=O)C(CC=Cc2ccccc2)NC(=O)C=CC(=O)N1 (stereo not drawn),"MAPKAPK2 (Homo sapiens, UniProt P49137)",DNA-templated library selection,,one selection round,,enrichment factor,1.8
CCCCCCCCO[C@@H]1O[C@H](CO)[C@H](O)[C@H](O)[C@H]1O[C@@H]1O[C@@H](C)[C@@H](O)[C@@H](O)[C@@H]1O,ABO G235S/G268A/L266M/R176G,methyl-TROSY NMR titration lineshape,,"two-state binding model, added: acceptor binding, saturating UDP",,koff,6.9 ± 0.4 s⁻¹
CC(C)C[C@H](NC(=O)[C@H](CC(C)C)NC(=O)[C@H](CC(N)=O)NC(=O)[C@H](Cc1c[nH]c2ccccc12)NC(=O)[C@H](Cc1ccc(O)cc1)NC(=O)[C@H](CCC(=O)O)NC(=O)[C@H](C)NC(=O)[C@@H](N)Cc1ccccc1)C(=O)O,"Protein Mdm4 (MDM4, Homo sapiens, UniProt O15151)",SPR competition,,,reference: PMI,loss of binding free energy,~5 kcal/mol
C[C@H](CCC(=O)N[C@@H](CCC(=O)Nc1ccc(O)cc1)C(=O)O)[C@H]1CC[C@H]2[C@@H]3[C@H](O)C[C@@H]4C[C@H](O)CC[C@]4(C)[C@H]3CC[C@]12C,"SLC10A2 (Homo sapiens, UniProt Q12908)","transport efficiency, substrate, LC-MS/MS",ASBT-MDCK,,,normalized Jmax/Kt,0.0286 µM⁻¹
CC(C)(C)CCN1C[C@@H]2[C@@H](CNC(=O)c3cc(Cl)cc(Cl)c3)[C@@H]2C1.Cl,"Voltage-dependent L-type calcium channel subunit alpha-1F, exon 47 deletion isoform (Homo sapiens, UniProt O60840)","calcium current, whole-cell patch clamp",HEK-293T cells,50 nM,,Gmax,0.0691 ± 0.02 nS/pF
CCCCCC(C)NCC(=O)O (stereo not drawn),"Albumin (ALB, Homo sapiens, UniProt P02768)",circular dichroism,,0.12 mM,,β-sheet content,8.2%
Nc1nc2cnc(C(=O)N3CCOC[C@@H]3c3ccc(C(F)(F)F)cc3)cc2c2c1COC2,"Protein arginine N-methyltransferase 5, SAM-bound (PRMT5, Homo sapiens, UniProt O14744)",SPR,,"concentration not given, added: SAM",,receptor occupancy,~25%
CCC(=C(c1ccc(O)cc1)c1ccc(OCCN(C)CCOCCOCCOCCN(C)CCOc2ccc(C(=C(CC)c3ccccc3)c3ccc(O)cc3)cc2)cc1)c1ccccc1 (mixture of isomers),ESR1,"competitor, radioligand competition binding",,"concentration not given, added: [3H]estradiol",reference: estradiol,relative binding affinity,8.16 ± 2%
CC(C)CC(NC(=O)C(NC(=O)NC(C(=O)O)C(C)C)C1CCNC(=N)N1)C(=O)NCCCNC(C(=O)O)C(OC1OC(CN)C(O)C1O)C1OC(n2ccc(=O)[nH]c2=O)C(O)C1O (stereo not drawn),"mraY (Aquifex aeolicus, UniProt O66465, K70A)",ITC,,"concentration not given, K70A mutant",,binding stoichiometry,0.72 ± 0.05 sites
N[C@@H](CCC(=O)N[C@@H](CS[Se]Cc1ccc(-c2cccc(C(O)c3ccc(Cl)c(Cl)c3)c2)cc1)C(=O)NCC(=O)O)C(=O)O (stereo partly drawn),"PTPN1 (Homo sapiens, UniProt P18031)",enzyme activity,,"added: pNPP, GSH 1 mM",reference: IC50 PTPN1 over STEP,selectivity ratio,27
CNCC=C(C)C=CC=CC=CC1=C(C)CCCC1(C)C,"Rhodopsin (RHO, Homo sapiens, UniProt P08100, P23H)","pharmacological chaperone, immunostaining, nonpermeabilized cells",661W,"2.5 µM, 16 h",reference: untreated cells,cell surface expression,~3 fold
CCNC(=O)[C@H]1O[C@@H](n2cnc3c(NCCOCCOCCNC(=O)CCCCCNC(=O)COc4ccc(/C=C/C5=[N+]6C(=Cc7ccc(-c8cccs8)n7[B-]6(F)F)C=C5)cc4)ncnc32)[C@H](O)[C@@H]1O,"ADORA1 (Homo sapiens, UniProt P30542)",CRE reporter gene,CHO-A1,"Gi response, added: forskolin",,log Kd minus log IC50,0.97
CCCCCCCCCCCCCCCC(=O)NCCCC[C@H](NC(=O)[C@H](CCC(=O)O)NC(=O)[C@H](Cc1ccc(O)cc1)NC(=O)[C@H](CCC(=O)O)NC(=O)COCC(=O)NCCCOCCOCCOCCCNC(=O)[C@H](Cc1c[nH]c2ccccc12)NC(=O)[C@H](CCCCN)NC(=O)[C@H](C)NC(=O)[C@H](CCCCNC(=N)N)NC(=O)[C@H](CCC(N)=O)NC(=O)[C@H](Cc1c[nH]cn1)NC(=O)[C@H](CCSC)NC(=O)[C@H](CC(C)C)NC(=O)[C@H](CCC(N)=O)NC(=O)[C@@H](NC(=O)[C@H](CCC(=O)O)NC(=O)C(C)(C)NC(=O)[C@@H](NC(=O)C(C)(C)N)C(C)C)[C@@H](C)CC)C(=O)N[C@@H](CCC(=O)O)C(=O)N[C@@H](Cc1ccc(O)cc1)C(=O)N[C@@H](CCC(=O)O)C(N)=O,"PTH1R (Homo sapiens, UniProt Q03431)","cAMP signaling, agonist",SGS-72 cells,"concentration not given, ligand-on and washout",reference: M-(1-14),potency fold change,≤ 10 fold
C=C1CN(S(=O)(=O)c2ccc(C)cc2)CCCN(Cc2ccccc2)CCCN(S(=O)(=O)c2ccc(C)cc2)C1,"Prolactin (PRL, Bos taurus, UniProt P01239)",cell-free translation,"reticulocyte lysate, microsomes",concentration not given,,translation and translocation,no effect
COC(=O)[C@H](CSSC(C)(C)[C@H](NC(=O)[C@H](CCC(=O)NC[C@H](O)[C@@H](O)[C@H](O)[C@H](O)CO)NC(=O)[C@H](CCC(=O)O)NC(=O)[C@H](CCC(=O)NC[C@H](O)[C@@H](O)[C@H](O)[C@H](O)CO)NC(=O)[C@H](CCC(=O)O)NC(=O)[C@H](CCC(=O)NC[C@H](O)[C@@H](O)[C@H](O)[C@H](O)CO)NC(=O)CC[C@H](NC(=O)c1ccc(NCc2cnc3nc(N)[nH]c(=O)c3n2)cc1)C(=O)O)C(=O)O)NC(=O)CC[C@H](NC(=O)c1ccc(NCc2cnc3nc(N)nc(N)c3n2)cc1)C(=O)O,"FOLR2 (Homo sapiens, UniProt P14207)",[3H]folic acid displacement,CHO expressing folate receptor beta,"1 h, 37 °C, added: [3H]folic acid 100 nM",reference: folic acid,relative affinity,~0.313
Cc1cc(N2CCC(CO)(C3CC3)C2=O)cc(C(=O)NCc2cc(F)cc(-c3cnn(C)c3)c2)n1 (stereo not drawn),"Bifunctional glutamate/proline--tRNA ligase, prolyl-tRNA synthetase domain (EPRS1, Homo sapiens, UniProt P07814)",thermal shift,,,,melting temperature,75.2 °C and 63.7 °C and 75.6 °C
CC(=C(c1ccc(Cl)cc1)c1ccc(OCCN2CCCC2)cc1)c1ccc(Cl)cc1,ESR1,"reporter gene, agonist, yeast estrogen screen",,1 µM,reference: DMSO,fold activation,1.57 ± 0.14 fold
O=C(NC1CC1)N1CC=C(c2cc3c(Nc4cc5ncsc5cc4F)ncnc3s2)CC1,"RIPK1 (Homo sapiens, UniProt Q13546)",enzyme activity,,1 µM,reference: untreated,remaining activity,98 ± 2%
C=CCCCCCCO[C@@H]1O[C@H](CO)[C@@H](O[C@@H]2O[C@H](CO)[C@H](O)[C@H](O)[C@H]2O[C@@H]2O[C@@H](C)[C@@H](O)[C@@H](O)[C@@H]2O)[C@H](O)[C@H]1O,ABO G235S/G268A/L266M/R176G,methyl-TROSY NMR titration lineshape analysis,,apo enzyme,,kon,1.1e+06 M⁻¹ s⁻¹
CCCCOc1ccc(C(=O)OCC[N+]2(C)CC=CCC2)cc1 (stereo not drawn),"CHRM5 (Homo sapiens, UniProt P08912)",recovery of [3H]NMS binding after washing,membranes,100 µM,,dissociation half-time,0.5 ± 0.1 h
CCCCSc1nc2c([nH]1)c(=S)n(C)c(=S)n2C,ESR1,"reporter gene, ERE luciferase",T47D-KBluc,"10 µM, 24 h, added: estradiol 5 nM",reference: maximal luciferase activity,reporter activity,77%
CC[C@H](C)[C@H](NC(=O)CNC(C)=O)C(=O)N[C@@H](CCCNC(=N)N)C(=O)N[C@@H](CCC(=O)O)C(=O)N[C@@H](C)C(=O)N[C@H](C(=O)N[C@@H](CC(C)C)C(=O)N[C@@H](CCCNC(=N)N)C(=O)N[C@@H](C)C(=O)N[C@@H](Cc1c[nH]c2ccccc12)C(=O)N[C@@H](CCC(=O)O)C(=O)N[C@@H](CCCNC(=N)N)C(=O)N[C@@H](CCCNC(=N)N)C(=O)N[C@@H](Cc1ccc(O)cc1)C(=O)NCC(=O)N[C@@H](Cc1ccccc1)C(=O)N1CCC[C@H]1C(=O)N[C@@H](CCCNC(=N)N)C(=O)N1CCC[C@H]1C(=O)N[C@@H](CC(C)C)C(=O)N[C@@H](CCCNC(=N)N)C(=O)N[C@@H](CO)C(=O)N[C@@H](CCC(=O)O)C(N)=O)[C@@H](C)O,"Antirepressor protein CarS (carS, Myxococcus xanthus, UniProt Q06911)",ITC,,"concentration not given, pH 7.5, 35 °C",,binding stoichiometry,0.89 ± 0.01
N[C@@H](Cc1ccc(O)c(I)c1)C(=O)O,"Iodotyrosine deiodinase (IYD, Thermotoga neapolitana, UniProt B9K712, F88A/W82A/Y112A)","binding, FMN fluorescence quenching",,25 °C,,"Kd ratio, W82A/F88A/Y112A over wild type",18 fold

# A few entries again:
Compound,target,test,test system,setting,how to read,measurement,result
O=C(NC1CC1)N1CC=C(c2cc3c(Nc4cc5ncsc5cc4F)ncnc3s2)CC1,"RIPK1 (Homo sapiens, UniProt Q13546)",enzyme activity,,1 µM,reference: untreated,remaining activity,98 ± 2%
CCCCCCCCO[C@@H]1O[C@H](CO)[C@H](O)[C@H](O)[C@H]1O[C@@H]1O[C@@H](C)[C@@H](O)[C@@H](O)[C@@H]1O,ABO G235S/G268A/L266M/R176G,methyl-TROSY NMR titration lineshape,,"two-state binding model, added: acceptor binding, saturating UDP",,koff,6.9 ± 0.4 s⁻¹
CC(C)C[C@H](NC(=O)[C@H](CC(C)C)NC(=O)[C@H](CC(N)=O)NC(=O)[C@H](Cc1c[nH]c2ccccc12)NC(=O)[C@H](Cc1ccc(O)cc1)NC(=O)[C@H](CCC(=O)O)NC(=O)[C@H](C)NC(=O)[C@@H](N)Cc1ccccc1)C(=O)O,"Protein Mdm4 (MDM4, Homo sapiens, UniProt O15151)",SPR competition,,,reference: PMI,loss of binding free energy,~5 kcal/mol
